Measured values collected from several papers.
Numbered parts are unrelated; each lists some results of a single study. Changes are numbered by the printed parent chain.

Study 1 — method: protein-binding microarray; molecule type: double-stranded DNA, one strand shown; sample: in vitro; concentration: not given; reading: higher = stronger binding; endpoint: E-score
Target: Max dimerization protein 1, bHLH-zipper, MAX partner unstated (MXD1, Homo sapiens, UniProt Q05195, residues 56-136)
Notes: k-mer, scored over probes, only values ≥0.25
Target sequence (chain): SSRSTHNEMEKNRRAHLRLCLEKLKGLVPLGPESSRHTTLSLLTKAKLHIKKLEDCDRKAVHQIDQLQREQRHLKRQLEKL
ATGACATG: 0.273
CACATGTC: 0.453
CACGCCAC: 0.335
ATGTGGTA: 0.303
CATGGCCC: 0.321
CGCCACCC: 0.311
CAGTCACG: 0.402
ACGCACGT: 0.431

Study 2 — target: DDIT3, bZIP domain (human); method: DHFR protein complementation; sample: yeast; relative to: wild-type JUN-FOS pair; reading: higher = stronger binding; endpoint: binding fitness
Notes: single substitutions, most at no-binding floor
Starting sequence: JUN, bZIP domain (human); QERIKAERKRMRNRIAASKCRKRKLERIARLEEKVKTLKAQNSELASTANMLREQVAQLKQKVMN; partner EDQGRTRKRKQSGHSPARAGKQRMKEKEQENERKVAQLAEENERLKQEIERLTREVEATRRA
E54S: -0.138 natural log
V56D: -1.24 natural log
E33F: -0.142 natural log
Q41V: -0.0412 natural log
L45R: -1.27 natural log
K36R: 0.105 natural log
K36F: -0.315 natural log
Q55G: -1.11 natural log

Study 3 — Change: I162V; method: DHFR PCA, deep sequencing; sample: yeast; relative to: wild-type fitted maximum; reading: higher = stronger binding; endpoint: relative binding score
Target: ABI1, truncated, D143A, DHFR fusion (Arabidopsis thaliana)
Notes: methotrexate growth selection, single substitutions
Starting sequence: PYL1, truncated, DHFR fusion (Arabidopsis thaliana); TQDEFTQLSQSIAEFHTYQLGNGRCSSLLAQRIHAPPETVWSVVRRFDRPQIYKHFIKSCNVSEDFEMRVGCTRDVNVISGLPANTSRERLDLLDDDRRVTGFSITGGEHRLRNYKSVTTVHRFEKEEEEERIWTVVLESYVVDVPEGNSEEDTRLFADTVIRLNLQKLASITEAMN
with: (+)-ABA 17 µM: 85.9%
with: (+)-ABA 0.032 µM: 39.2%
with: (+)-ABA 2500 µM: 101%
with: (+)-ABA 0 µM: 38.3%
with: (+)-ABA 710 µM: 103%
with: (+)-ABA 0.39 µM: 59.5%

Mixed results
CCCCN(CCCC)C(=O)CN1C[C@@H](c2cc(OC)c3c(c2)OCO3)[C@H](C(=O)O)[C@H]1CC(C)(C)CCC — remaining binding (Receptor-type tyrosine-protein kinase FLT3 (FLT3, Homo sapiens, UniProt P36888); cell-free assay, competition with immobilised ligand; 1 µM): 91.9%

Some of these lines once more (mixed results):
CCCCN(CCCC)C(=O)CN1C[C@@H](c2cc(OC)c3c(c2)OCO3)[C@H](C(=O)O)[C@H]1CC(C)(C)CCC — remaining binding (Receptor-type tyrosine-protein kinase FLT3 (FLT3, Homo sapiens, UniProt P36888); cell-free assay, competition with immobilised ligand; 1 µM): 91.9%
